Measured values gathered from unrelated publications.
Each line is one published result; not all experiments were run side by side. Several values in a cell are separate wells, animals, samples, runs or records. Numbers after ± are the reported error. Values after ≈ are worked out from the molar mass of the structure shown.

SMILES | test | test system | conditions | how to read | endpoint | value
CC(C)c1nc(N(C)S(C)(=O)=O)nc(-c2ccc(F)cc2)c1/C=C/[C@@H](O)C[C@@H](O)CC(=O)O | refers to: any adverse event | healthy men | oral, dose not given, 8 days, treatment-emergent, crossover trial | – | subjects with adverse event | 13.6%
C=CC(=O)NC1CCN(c2ncc3ncnc(Nc4ccc(Oc5ccc6c(c5)ncn6C)c(C)c4)c3n2)CC1 | – | human, male | oral, 240 mg, treatment-emergent adverse event | – | participants with fatigue | 6.3%
COc1ccc2c(c1)CN(C(=O)CCN1CCC(Cc3ccccc3)CC1)CC[S@@+]2[O-] | telemetry | conscious dog | intravenous, 4 mg/kg, 1 h | – | diastolic blood pressure | 76 ± 6 mmHg
CNCCOC12CC3(C)CC(C)(CC(Cn4ncc(-c5ccc(N6CCc7cccc(C(=O)Nc8nc9ccccc9s8)c7C6)nc5C(=O)O)c4C)(C3)C1)C2 | – | beagle dog, male, anaesthetised | intravenous bolus, 0.03 mg/kg, 105 min | relative to: baseline | mean arterial pressure change | -1%
Oc1ccc(/C=C/c2cc(O)cc(O)c2)cc1 | – | rat, azoxymethane-injected, blood at sacrifice | 10 mg/kg | – | potassium | 3.6 mEq/L and 3.7 mEq/L
C=CC(=O)N(C)CCOc1c(N)ncnc1-c1cc(F)cc(NC(=O)c2ccc(C3CC3)cc2F)c1C | – | human, plasma | oral, 30 mg single dose | – | AUC | 75.1 ng·h/mL
Cn1cnc2c(F)c(Nc3ccc(Br)cc3Cl)c(C(=O)NOCCO)cc21 | – | human, plasma | oral, dose not given, first-order absorption | – | peripheral volume of distribution | 52.2 L
C=CC(=O)N1CCC(c2ccc(C(N)=O)c(-c3ccc(Oc4ccccc4)cc3)n2)CC1 | – | relapsed/refractory mantle cell lymphoma patients | oral, dose not given, part, all doses, CTCAE v4.03 | – | treatment-related AE rate | 40.6%
C[C@@H](N)C1CCN(S(=O)(=O)c2cccc3cnccc23)CC1 | refers to: Dizziness | healthy volunteers | 150 mg, fed | – | TEAE incidence | 0%
Cc1cc(C)c(CNC(=O)c2cc(Cl)c3c(c2C)O[C@@](C)([C@H]2CC[C@H](N(C)C)CC2)O3)c(=O)[nH]1 | – | relapsed/refractory NHL patients | oral, 200 mg once daily, onset after cycle 1 day 1 | – | adverse event Dizziness | 16.7%
O=C1NCCc2nc(OCc3cccc(F)c3)ccc21 | refers to: Vasodilatation | Sprague-Dawley rat male | oral, 100 mg/kg, 4 h | direction not given | Irwin test score | 0
Cc1cc2sc(N)nc2c2cccnc12 | – | female BALB/c mice, plasma | i.p., 30 mg/kg, observed | – | AUMC(0-inf) | 223000 h²·ng/mL
CNC(=O)c1ccccc1Nc1cc(Nc2ccc(N3CCOCC3)cc2OC)ncc1C(F)(F)F | – | Captex MCT | 24 h, 25 °C | – | solubility | 1840 µg/mL (≈ 3.67 mM)
CNc1ccc(-c2nc3ccc(O)cc3s2)cc1 [carbon-11 labelled] | ex vivo biodistribution | APP/PS1 Alzheimer mice, cecum | intravenous, 30 min | – | uptake | 0.435 ± 0.236 SUV
CCOc1c([C@H](C)n2nc(C)c3c(N)ncnc32)cc(Cl)c(F)c1[C@@H]1CNC(=O)C1 | refers to: QTcF > 500 ms | previously treated B-cell malignancy | oral, dose not given, baseline QTcF ≤450 ms, all doses | – | share of patients | 0%
CC(=O)N(C)[C@H]1CCN(C(=O)c2cnc3c(c2)C[C@](C)(c2ccc(F)cc2)N3)C1 | – | healthy male subjects, multiple rising dose | oral, 30 mg once daily | – | adverse events of special interest | 12.5%
COc1ccc2c(=O)n(C)c(-c3ccccc3)nc2c1 | – | Sprague-Dawley rat, male, small intestine | oral, 30 mg/kg, 0.5 h | relative to: small intestine over plasma | tissue/plasma ratio | 7350
COc1cccc(O)c1OS(=O)(=O)O | – | human CSF | concentration not given, mean | – | CSF concentration | not detected
Cc1ccc([C@@H]2O[C@H](CO)[C@@H](O)[C@H](O)[C@H]2O)cc1Cc1ccc(-c2ccc(F)cc2)s1 | – | Japanese type 2 diabetes patients | 25 mg, day 17, 24 h urine collection | relative to: baseline | urinary potassium excretion change | -6.11 mEq
CC(C)(C)c1ccc(C(O)CCCN2CCC(C(O)(c3ccccc3)c3ccccc3)CC2)cc1 (stereo not drawn) | – | male Hartley guinea pigs, anaesthetized | intravenous, 3 mg/kg group, baseline before infusion | – | heart rate | 232 ± 0.6 beats/min
Cc1cn(-c2cc(NC(=O)c3ccc(C)c(Nc4nccc(-c5cccnc5)n4)c3)cc(C(F)(F)F)c2)cn1 | population PK model, typical value | human, plasma | oral, dose not given, fasted state | – | peripheral volume of distribution (V2) | 217 L
C=CC(=O)N(C)CCOc1c(N)ncnc1-c1cc(F)cc(NC(=O)c2ccc(C3CC3)cc2F)c1C | – | human, whole blood | oral, 15 mg, single ascending dose | – | AUC(0-t) | 25.1 ng·h/mL
Cc1cccc(C)c1OCC(=O)N[C@@H](Cc1ccccc1)[C@@H](O)C[C@H](Cc1ccccc1)NC(=O)[C@H](C(C)C)N1CCCNC1=O | ultracentrifugation | phosphate buffer with HPMCAS | 15 min, pH 6.5, 3% BSA | – | amorphous solubility | 73.1 ± 6.6 µg/mL

SMILES | test | test system | conditions | how to read | endpoint | value
CCc1cc(C(=O)NC)c2nccc(N3CCc4c(cc(Cn5ccnc5)cc4-c4cn(C)nc4C(F)(F)F)C3=O)c2c1 | – | Sprague Dawley rat | oral, 50 mg/kg once daily, day 3, 7-day toxicology study | – | body weight | 237 ± 9.4 g
Cc1nc2cccc(OCC(C)(C)C(=O)NC(C)C)c2c(N)c1C(=O)O | – | male CD-1 mouse, bone marrow | oral, 2000 mg/kg, 36 h | – | micronucleated normochromatic erythrocytes | 1.3 per 2000 PCEs
C[C@@H](Oc1ccc(S(C)(=O)=O)cc1C(=O)N1C[C@@H]2C[C@]2(c2cc(C(F)(F)F)on2)C1)C(F)(F)F | – | human | oral, 25 mg | – | incidence of Diarrhea | 16.7%
C[C@H]1O[C@@H](O[C@H]2CC[C@@]3(C)[C@@H](CC[C@]4(C)[C@@H]3C=C[C@]35OC[C@@]6(CCC(C)(C)C[C@H]63)[C@@H](O)C[C@]54C)[C@]2(C)CO)[C@H](O)[C@@H](O[C@@H]2O[C@H](CO)[C@@H](O)[C@H](O)[C@H]2O)[C@H]1O | UHPLC-MS/MS | mouse, plasma | oral, 50 mg/kg, 10 h, pooled samples | – | plasma concentration | 0 ng/mL
COc1ccc2[nH]c([S+]([O-])Cc3ncc(C)c(OC)c3C)nc2c1 (stereo not drawn) | – | healthy male humans | 40 mg, 4 day, compound alone | – | mild adverse events | 0%
COCCOc1cnc2ccn([C@H](C)c3nnc4c(F)cc(-c5cnn(C)c5)cn34)c(=O)c2c1 | – | patients, plasma | oral, 250 mg twice daily, day 28, 500 per day | – | Cmax | 4570 ng/mL
O=C(Oc1coc(CSc2ncccn2)cc1=O)c1ccc([N+](=O)[O-])cc1 | – | mouse liver microsomes | 5 min, added: with or without NADPH | – | parent compound detection | not detected
CCCCCCCCCCNCc1ccc(CNC(=O)c2csc3nc[nH]c(=O)c23)cc1 | – | human red blood cells in PBS | 1 h, 37 °C, estimated, weak activity | – | EC50 | > 100 µM
O=C(O)CCC(=O)O.[2H]C([2H])([2H])Oc1cc(C)c2[nH]ccc2c1CN1CC[C@@H](C2CC2)C[C@H]1c1ccc(C(=O)O)cc1 | multiple ascending dose | healthy Chinese subjects | 50 mg twice daily | – | subjects with TEAE Acne | 0%
CCn1cc(C(=O)N2CCOCC2)c(=O)c2cc(NC3Cc4ccccc4C3)cnc21 | – | human, fasted | oral suspension, 15 mg single dose, median | – | Tmax | 1.5 h
CC(C)(C)c1ccc(O)c(CN(Cc2cc(C(C)(C)C)ccc2O)C2CCC(NC(N)=O)CC2)c1 (stereo not drawn) | – | C57BL/6 mice, male, plasma | intraperitoneal, 25 mg/kg, single dose | – | terminal elimination rate constant | 8.06e-05 s⁻¹
Cc1cc(NC2CCN(C(=O)OC3CCN(C(=O)/C=C/CN(C)C)C3)CC2)n2ncc(C(C)C)c2n1 (stereo not drawn) | Phase I dose escalation CTCAE v4.0, refers to: decreased appetite | patients with advanced solid tumours | dose not given, TIW dosing grade 3 or higher | – | patients with adverse event | 0%
O=C(O)c1ccc(O)c(O)c1O | – | human CSF | concentration not given, mean | – | CSF concentration | not detected
CC[C@H](C)[C@H](NC(=O)[C@H](Cc1ccccc1)NC(=O)[C@H](CCC(=O)O)NC(=O)[C@H](CCCCNC(=O)COCCOCCNC(=O)COCCOCCNC(=O)CC[C@H](NC(=O)CCCCCCCCCCCCCCCCC(=O)O)C(=O)O)NC(=O)[C@H](C)NC(=O)[C@H](C)NC(=O)[C@H](CCC(N)=O)NC(=O)CNC(=O)[C@H](CCC(=O)O)NC(=O)[C@H](CC(C)C)NC(=O)[C@H](Cc1ccc(O)cc1)NC(=O)[C@H](CO)NC(=O)[C@H](CO)NC(=O)[C@@H](NC(=O)[C@H](CC(=O)O)NC(=O)[C@H](CO)NC(=O)[C@@H](NC(=O)[C@H](Cc1ccccc1)NC(=O)[C@@H](NC(=O)CNC(=O)[C@H](CCC(=O)O)NC(=O)C(C)(C)NC(=O)[C@@H](N)Cc1cnc[nH]1)[C@@H](C)O)[C@@H](C)O)C(C)C)C(=O)N[C@@H](C)C(=O)N[C@@H](Cc1c[nH]c2ccccc12)C(=O)N[C@@H](CC(C)C)C(=O)N[C@H](C(=O)N[C@@H](CCCNC(=N)N)C(=O)NCC(=O)N[C@@H](CCCNC(=N)N)C(=O)NCC(=O)O)C(C)C | – | type 2 diabetes patients | dose not given, hypoglycaemic clamp, nadir PG 5.5 mmol/L | relative to: placebo | heart rate difference | 0.9 beats/min
COc1ccnc(C(=O)NCC(=O)O)c1O | FOCUS PEARL groundwater modelling | soil | geometric mean input | – | KOC | 388 mL/g
Cc1ccc(C(=O)N(CCCN)C(c2nc3snc(C)c3c(=O)n2Cc2ccccc2)C(C)C)cc1 (stereo not drawn) | – | human patients | intravenous, 13 mg/day | – | grade ≥3 dysphagia patients | 33%
N#Cc1ccc2c(c1)[C@H]1CCCN(C(=O)c3ccc4[nH]cnc4c3)[C@H]1C2 | – | human, female | 80 mg, day 15 | – | androstenedione level | 7.9 nmol/L
CCCCc1oc2ccccc2c1C(=O)c1cc(I)c(OCCN(CC)CC)c(I)c1 | – | male Hartley guinea pigs, anaesthetized | intravenous, 5 mg/kg over 10 min, after infusion | – | heart rate | 199 ± 0.3 beats/min
COc1cc(Nc2ncc3c(n2)-c2ccc(Cl)cc2C(c2c(F)cccc2OC)=NC3)ccc1C(=O)O | – | patients | oral, dose not given, grade 3, any attribution, added: pembrolizumab | – | anaemia incidence | 17%
O=C(O)[C@H]1O[C@@H](Oc2ccccc2O)[C@H](O)[C@@H](O)[C@@H]1O | – | human CSF | concentration not given, mean | – | CSF concentration | not detected
O=C1c2ccncc2C(=O)c2c1[nH]c1ccccc21 | – | Sprague-Dawley rat, male, right ventricle | oral, 1 mg/kg, 24 h | – | tissue concentration | 0.047 ± 0.02 nmol/mg
COc1ccc([C@@H](O)c2cc(-c3ncnc4cc(N5CCOCC5)ccc34)c(F)cc2Cl)nn1 | – | locally advanced rectal cancer patients | 150 mg, added: capecitabine and radiotherapy | – | anaemia TEAE incidence | 17%

Repeated from above:
SMILES | test | test system | conditions | how to read | endpoint | value
COc1ccc2[nH]c([S+]([O-])Cc3ncc(C)c(OC)c3C)nc2c1 (stereo not drawn) | – | healthy male humans | 40 mg, 4 day, compound alone | – | mild adverse events | 0%
COCCOc1cnc2ccn([C@H](C)c3nnc4c(F)cc(-c5cnn(C)c5)cn34)c(=O)c2c1 | – | patients, plasma | oral, 250 mg twice daily, day 28, 500 per day | – | Cmax | 4570 ng/mL
O=C(Oc1coc(CSc2ncccn2)cc1=O)c1ccc([N+](=O)[O-])cc1 | – | mouse liver microsomes | 5 min, added: with or without NADPH | – | parent compound detection | not detected
